Assay results from different studies.
Lines come from different studies, so protocols differ. Numbers after ± are the reported error.
U2AF2: U2AF2 148-342 (Homo sapiens, UniProt P26368)
Chain of UniProt P26368 (whole entry, looked up): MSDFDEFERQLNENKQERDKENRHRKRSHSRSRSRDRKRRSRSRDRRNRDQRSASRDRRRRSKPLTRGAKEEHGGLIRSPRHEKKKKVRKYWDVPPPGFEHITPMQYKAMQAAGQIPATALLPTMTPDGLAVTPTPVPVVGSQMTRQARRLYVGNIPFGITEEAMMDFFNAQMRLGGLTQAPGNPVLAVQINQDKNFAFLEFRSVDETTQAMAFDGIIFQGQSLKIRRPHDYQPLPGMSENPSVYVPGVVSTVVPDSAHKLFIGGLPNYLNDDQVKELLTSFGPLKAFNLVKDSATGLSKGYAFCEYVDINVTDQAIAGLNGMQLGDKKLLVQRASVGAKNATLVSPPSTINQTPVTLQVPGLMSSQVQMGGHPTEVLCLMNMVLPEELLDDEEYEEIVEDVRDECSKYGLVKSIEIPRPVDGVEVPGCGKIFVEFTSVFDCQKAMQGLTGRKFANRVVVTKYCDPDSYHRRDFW
B1: aspC A106G/A218G/F210I/I29V/I33V/I68L/I71L/N30D/N64T/S135A/T100S/V136I/V375I (Escherichia coli, UniProt P00509); chain MFENITAAPADPILGLADLFRADERPGKVDLGVGVYKDETGKTPVLTSVKKAEQYLLENETTKTYLGLDGLPEFGRCTQELLFGKGSALINDKRARTAQSPGGTGGLRVAADFLAKNTSVKRVWVSNPSWPNHKAIFNSAGLEVREYAYYDAENHTLDFDALINSLNEAQAGDVVLFHGCCHNPTGIDPTLEQWQTLAQLSVEKGWLPLIDFAYQGFGRGLEEDAEGLRAFAAMHKELIVASSYSKNFGLYNERVGACTLVAADSETVDRAFSQMKAAIRANYSNPPAHGASVVATILSNDALRAIWEQELTDMRQRIQRMRQLFVNTLQEKGANRDFSFIIKQNGMFSFSGLTKEQVLRLREEFGVYAVASGRINVAGMTPDNMAPLCEAIVAVL
B2: enzyme S252E (Schizosaccharomyces pombe, UniProt P78804); chain MSTPYEPEFQQAYKEIVGSIESSKLFEVHPELKRVLPIISIPERVLEFRVTWEDDKGNCRVNTGYRVQFNSALGPYKGGLRFHPSVNLSILKFLGFEQIFKNALTGLPMGGGKGGSDFDPKGKSDNEIRRFSQAFMRQLFRYIGPQTDVPAGDIGVTGFVVMHMFGEYKRLRNEYSGVVTGKHMLTGGSNIRPEATGYGVVYYVKHMIEHRTKGAETLKGKRVAISGSGNVAQYAALKCIQEGAIVKSISDEKGVLIAKTAEGLVPEEIHEIMALKEKRASIADSASLCKKHHYIAGARPWTNVGEIDIALPCATQNEVSGEEAAALIKQGCRYVAEGSNMGSSAEAVEVFEKSRASGEGCWLAPGKAANAGGVAVSGLEMAQNAQFSTWTHAEVDAKLAGIMQNIFEQSTDVASKYCDSGSNNIPSLVDGANIAGFLKVATAMQAVGDWW
B3: human suprabasin; sequence looked up; chain DDPIEKVIEGINRGLSNAEREVGKALDGINSGITHAGREVEKVFNGLSNMGSHTGKELDKGVQGLNHGMDKVAHEINHGIGQAGKEAEKLGHGVNNAAGQVGKEADKLIHHGVHHGANQAGSEAGKFGQGVDNAAGQAGNEAGRFGQGVHHAAGQAGNEAGRFGQGVHHAAGQAGNEAGRFGQGAHHGLSEGWKETEKFGQGIHHAAGQVGKEAEKFGQGAHHAAGQAGNEAGRFGQGVHHGLSEGWKETEKFGQGVHHTAGQVGKEAEKFGQGAHHAAGQAGNEAGRFGQGAHHAAGQAGNEAGRFGQGVHHGLSEGWKETEKFGQGVHHAASQFGKETEKLGHGVHHGVNEAWKEAEKFGQGVHHAASQVGKEEDRVVQGLHHGVSQAGREAGQFGHDIHHTAGQAGKEGDIAVHGVQPGVHEAGKEAGQFGQGVHHTLEQAGKEADKAVQGFHTGVHQAGKEAEKLGQGVNHAADQAGKEVEKLGQGAHHAAGQAGKELQNAHNGVNQASKEANQLLNGNHQSGSSSHQGGATTTPLASGASVNTPFINLPALWRSVANIMP
B4: SCO6712 Y229F (Streptomyces coelicolor, UniProt Q9XAL8); chain AKGITARTAPAGGEVRHLKMYAEKLADGQMGYGFEKGKASVPGPLIEVNEGDTLHIEFTNTMDVRASLHVHGLDYEISSDGTAMNKSDVEPGGTRTYTWRTHKPGRRDDGTWRPGSAGYWHYHDHVVGTEHGTGGIRNGLYGPVIVRRKGDVLPDATHTIVFNDMTINNRKPHTGPDFEATVGDRVEIVMITHGEFYHTFHMHGHRWADNRTGILTGPDDPSRVIDNKITGPADSFGFQIIAGEGVGAGAWMYHCHVQSHSDMGMVGLFLVKKPDGTIPGYEPHEHGGATAKSGESGEPTGGAAAHEHEH
B5: enzyme Y24A (Nitrosopumilus maritimus, UniProt A9A5X4); chain MDSQKFDSIIFDCDGVLVDITQSADKTIDKTCRYVLKEFAKIDSITIDHKIIDGFKSSGGFNDEVDLVYAAILSLYTANKLNKKPSEFIYDVISNTDKTGIRSVQSYLESIYDVSEFLSKLGSLGDRHNNPVYSIFDQFFFGPELYGKLFDKQSKFSEEGMISNDKVILSVSLLETLQKEFGKKIAVVTGRGIESIRYSLKDMMDYFDTKNSAFLEDEPRELAKPNPATLIRAIQSMESKNCLYVGDSMEDYMMAKDAAQAGHSTTFCAIVGTSTNPEDRRKLFADSGVEMILESINDIPKVLNLV
B6: enzyme A167S/Y136L (Bradyrhizobium diazoefficiens, UniProt Q45222); chain MIQTERAVQQVLEWGRSLTGFADEHAVEAVRGGQYILQRIHPSLRGTSARTGRDPQDETLIVTFYRELALLFWLDDCNDLGLISPEQLAAVEQALGQGVPCALPGFEGCAVLRASLATLAYDRRDYAQLLDDTRCLSAALRAGHAQAVAAERWSYAEYLHNGIDSISYANVFCCLSLLWGLDMATLRARPAFRQVLRLISAIGRLQNDLHGCDKDRSAGEADNAVILLLQRYPAMPVVEFLNDELAGHTRMLHRVMAEERFPAPWGPLIEAMAAIRVQYYRTSTSRYRSDAVRGGQRAPA
B7: human CIP4; sequence looked up; chain MDWGTELWDQFEVLERHTQWGLDLLDRYVKFVKERTEVEQAYAKQLRSLVKKYLPKRPAKDDPESKFSQQQSFVQILQEVNDFAGQRELVAENLSVRVCLELTKYSQEMKQERKMHFQEGRRAQQQLENGFKQLENSKRKFERDCREAEKAAQTAERLDQDINATKADVEKAKQQAHLRSHMAEESKNEYAAQLQRFNRDQAHFYFSQMPQIFDKLQDMDERRATRLGAGYGLLSEAELEVVPIIAKCLEGMKVAANAVDPKNDSHVLIELHKSGFARPGDVEFEDFSQPMNRAPSDSSLGTPSDGRPELRGPGRSRTKRWPFGKKNKPRPPPLSPLGGPVPSALPNGPPSPRSGRDPLAILSEISKSVKPRLASFRSLRGSRGTVVTEDFSHLPPEQQRKRLQQQLEERSRELQKEVDQREALKKMKDVYEKTPQMGDPASLEPQIAETLSNIERLKLEVQKYEAWLAEAESRVLSNRGDSLSRHARPPDPPASAPPDSSSNSASQDTKESSEEPPSEESQDTPIYTEFDEDFEEEPTSPIGHCVAIYHFEGSSEGTISMAEGEDLSLMEEDKGDGWTRVRRKEGGEGYVPTSYLRVTLN
B8: enzyme H476A (Methanosarcina mazei, UniProt Q8PVB1); chain MSEQRSVPLREHLLALKPCRHGGLIQETSETYGIPENEILDFSANFNPLGSPFDYPENGLNFEDIIKKSCGKLLEYPDNRYVEFREAAARFVGLGVTPQSIVPGNGSTEIVRLVVESVIEKGDKVLLPWPTFGEYEMQCRITGAEPVCPSQEEVNTLPDEVLEEAKILFICNPNNPTGKLRTREELKVLAERCREHKTLLYVDEAFIELSDPSQSVADLPAENNYVFVMRSLTKDFAIPGIRMGFGIAPPAMADILNTARLSWNLGAIANNTGIALLNIEGGIDSPYLKKAREMILKEGETLKAKIDRIRGFEAGEVNVNFILVDVSKFMLNSSELTARLAARGVLVRDCVSFHGLGKNYIRVAVRTEKENDRLIAAIGDVITEWGREQAKNELQHVIEKASEEGIGGRKTCEYYPCHFEGQNCTFCFCPFYPCENEKTGGKWIQSSRGGRVWSCVDCHLVHKKEIAQKILDCLMAEGDTDELVKVAWKEVMEPIL
Chain of UniProt P0AE52 (whole entry, looked up): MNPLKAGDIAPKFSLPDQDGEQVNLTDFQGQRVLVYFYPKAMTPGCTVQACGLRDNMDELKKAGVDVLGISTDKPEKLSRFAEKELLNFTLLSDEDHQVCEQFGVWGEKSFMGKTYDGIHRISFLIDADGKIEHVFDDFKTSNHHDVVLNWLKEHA

Substance	tested on	assay	system	conditions	scale	measurement	result
B1	N[C@@H](Cc1ccc(O)cc1)C(=O)O	steady-state kinetics		pH 7.5, 25 °C, added: PLP 20 µM		kcat/Km	29000 M⁻¹ s⁻¹
B2 (enzyme S252E)	NC(=O)c1ccc[n+]([C@@H]2O[C@H](COP(=O)(O)OP(=O)(O)OC[C@H]3O[C@@H](n4cnc5c(N)ncnc54)[C@H](OP(=O)(O)O)[C@@H]3O)[C@@H](O)[C@H]2O)c1	steady-state kinetics		pH 7, 30 °C, apparent		kcat/Km	24000 ± 2000 M⁻¹ s⁻¹
B3 (human suprabasin)	PP6C (human)	co-immunoprecipitation, IP-MS	CYB5R4 knockout cells	concentration not given	baseline: CYB5R4 knockout over parental	log2 fold change	-0.48
GUACUGUUC (ssRNA)	U2AF2	sequencing of bound RNA	RNA	motif only		Kd	12.8 µM
B4 (SCO6712 Y229F)	CCn1c(=NN=c2sc3cc(S(=O)(=O)O)ccc3n2CC)sc2cc(S(=O)(=O)O)ccc21	steady-state kinetics		pH 7, 37 °C, NaCl 150 mM, added: O2 cosubstrate		kcat/Km	850 ± 40 M⁻¹ s⁻¹
AUUGUUUAU (ssRNA)	U2AF2	sequencing of bound RNA	RNA	motif only		Kd	6.09 µM
B5 (enzyme Y24A)	N[C@H](COP(=O)(O)O)Cc1c[nH]cn1	steady-state kinetics		pH 7.8, 25 °C		kcat/Km	36 ± 9 M⁻¹ s⁻¹
enzyme Y26F (Homo sapiens, UniProt Q08623)	O=c1[nH]cc([C@@H]2O[C@H](COP(=O)(O)O)[C@@H](O)[C@H]2O)c(=O)[nH]1	steady-state kinetics		pH 7, 25 °C		kcat/Km	350000 M⁻¹ s⁻¹
gdh E198G/N97F (Bacillus subtilis)	NC(=O)c1ccc[n+]([C@@H]2O[C@H](COP(=O)(O)OP(=O)(O)OC[C@H]3O[C@@H](n4cnc5c(N)ncnc54)[C@H](O)[C@@H]3O)[C@@H](O)[C@H]2O)c1	steady-state kinetics		pH 7, 55 °C		kcat/Km	69300 ± 5170 M⁻¹ s⁻¹
B6 (enzyme A167S/Y136L)	C=C1CC[C@@H]2C(C)(C)CCC[C@@]2(C)[C@@H]1CC/C(C)=C/COP(=O)(O)OP(=O)(O)O	steady-state kinetics				kcat/Km	13000 M⁻¹ s⁻¹
enzyme (UniProt P0DY30)	CC(=O)N[C@H]1[C@H](Oc2ccc([N+](=O)[O-])cc2)O[C@H](CO)[C@@H](O)[C@@H]1O[C@@H]1O[C@H](CO)[C@H](O)[C@H](O)[C@H]1O	steady-state kinetics		pH 6, 50 °C		kcat/Km	4250 M⁻¹ s⁻¹
acsA L233M (Pseudomonas chlororaphis)	O=C(O)CCC(F)(F)F	steady-state kinetics		pH 7		kcat/Km	133 ± 16.7 M⁻¹ s⁻¹
B7 (human CIP4)	CYB5R4 knockout human cells	PP4 interaction, 3xFLAG-PP4C IP-MS		concentration not given	baseline: CYB5R4 KO over parental	log2 fold change	-0.32
enzyme (UniProt I4BTU9)	N[C@@H](CO)C(=O)O	steady-state kinetics		pH 8, 30 °C		kcat/Km	15.6 ± 0.8 M⁻¹ s⁻¹
enzyme (Staphylococcus aureus, UniProt Q2G294)	CCC(=O)O	steady-state kinetics		pH 7, 30 °C, apparent		kcat/Km	1400 M⁻¹ s⁻¹
B8 (enzyme H476A)	Nc1ncnc2c1ncn2[C@@H]1O[C@H](COP(=O)(O)OP(=O)(O)OP(=O)(O)O)[C@@H](O)[C@H]1O	steady-state kinetics		pH 8.5, 25 °C, apparent, anoxic, added: L-Thr 10 mM		kcat/Km	76 ± 20 M⁻¹ s⁻¹
enzyme (UniProt A0A097IUD8)	Nc1ncnc2c1ncn2[C@@H]1O[C@H](COP(=O)(O)OP(=O)(O)O)[C@@H](O)[C@H]1O	steady-state kinetics		pH 6, 25 °C, added: 16 mM PEP		kcat/Km	340000 M⁻¹ s⁻¹
bcp (Escherichia coli, UniProt P0AE52)	CC(C)(OO)c1ccccc1	steady-state kinetics		pH 7, 25 °C, apparent		kcat/Km	12000 M⁻¹ s⁻¹
enzyme (Oryza sativa, UniProt Q6ZGQ4)	O=[N+]([O-])c1ccc(O[C@@H]2OC[C@H](O)[C@H](O)[C@H]2O)cc1	steady-state kinetics		pH 4, 40 °C, apparent		kcat/Km	2.2 M⁻¹ s⁻¹

A few entries again:
Substance	tested on	assay	system	conditions	scale	measurement	result
enzyme Y26F (Homo sapiens, UniProt Q08623)	O=c1[nH]cc([C@@H]2O[C@H](COP(=O)(O)O)[C@@H](O)[C@H]2O)c(=O)[nH]1	steady-state kinetics		pH 7, 25 °C		kcat/Km	350000 M⁻¹ s⁻¹
B7 (human CIP4)	CYB5R4 knockout human cells	PP4 interaction, 3xFLAG-PP4C IP-MS		concentration not given	baseline: CYB5R4 KO over parental	log2 fold change	-0.32
